Published values gathered from unrelated publications.
Protocols differ between the studies behind these lines.
Organism: Bacillus subtilis

`O=CCNCCOn1c(=O)n(OCCNCCO)c(=O)n(OCCNCCOn2c(=O)n(OCCNCCO)c(=O)n(OCCNCCO)c2=O)c1=O` has an MIC of 1 µg/mL (microbial growth, broth dilution).
`COc1cc(C(=O)Nc2ccc(C(=O)O)c(O)c2)ccc1NC(=O)c1ccc(NC(=O)[C@H](Cc2c[nH]nn2)NC(=O)c2ccc(NC(=O)/C(C)=C/c3ccc(O)cc3)cc2)cc1` gave an MIC of 2 µg/mL (broth microdilution; DSM 10).
With `CC[C@H]1OC(=O)[C@H](C)[C@@H](OC(=O)Cc2ccc(N(C)C)cc2)[C@H](C)[C@@H](O[C@@H]2O[C@H](C)C[C@H](N(C)C)[C@H]2O)[C@](C)(OC)C[C@@H](C)C(=O)[C@H](C)[C@@H](O)[C@]1(C)O` the MIC was 8 µg/mL (microbial growth; DSM402).
`COc1c(NC(=O)c2ccc(NC(=O)c3ccc(NC(=O)[C@H](Cc4c[nH]nn4)NC(=O)c4ccc(NC(=O)/C(C)=C/c5ccc(O)cc5)cc4)cc3)cc2O)ccc(C(=O)O)c1O` gave an MIC of 4 µg/mL (broth microdilution; DSM 10).
For `CC[C@H]1OC(=O)[C@H](C)[C@@H](O[C@H]2C[C@@](C)(OC)[C@@H](O)[C@H](C)O2)[C@H](C)[C@@H](O[C@@H]2O[C@H](C)C[C@H](N(C)C)[C@H]2O)[C@](C)(OC)C[C@@H](C)C(=O)[C@H](C)[C@@H](O)[C@]1(C)O`, the MIC was 0.5 µg/mL (microbial growth; DSM402).
The MIC of `COc1nc(C(=O)Nc2ccc(C(=O)O)c(O)c2OC)ccc1NC(=O)c1ccc(NC(=O)[C@H](Cc2c[nH]nn2)NC(=O)c2ccc(NC(=O)/C(C)=C/c3ccc(O)cc3)cc2)cc1` is reported as 0.5 µg/mL (broth microdilution; DSM 10).
`CN[C@H](CC(C)C)C(=O)N[C@H]1C(=O)N[C@@H](CC(N)=O)C(=O)N[C@H]2C(=O)N[C@H]3C(=O)N[C@H](C(=O)N[C@H](C(=O)N[C@@H](CCCNC(=N)N)C(N)=O)c4cc(O)cc(O)c4-c4cc3ccc4O)[C@H](O)c3ccc(c(Cl)c3)Oc3cc2cc(c3O[C@@H]2O[C@H](CO)[C@@H](O)[C@H](O)[C@H]2O[C@H]2C[C@](C)(NCc3ccc(OCc4cn(CC(=O)N[C@H](C(=O)N[C@@H](CCN)C(=O)N[C@H]5CCNC(=O)[C@H]([C@@H](C)O)NC(=O)[C@H](CCN)NC(=O)[C@H](CCN)NC(=O)[C@H](CC(C)C)NC(=O)[C@@H](CC(C)C)NC(=O)[C@H](CCN)NC5=O)[C@@H](C)O)nn4)c(OC)c3)[C@H](O)[C@H](C)O2)Oc2ccc(cc2Cl)[C@H]1O` has an MIC of at most 0.008 µg/mL (broth microdilution; 168, cation-adjusted Mueller-Hinton broth; 20 to 24 h, 37 °C, 0.002% polysorbate 80).
For `CC[C@H]1OC(=O)[C@H](C)[C@@H](OC(=O)Cc2ccc(OC)cc2)[C@H](C)[C@@H](O[C@@H]2O[C@H](C)C[C@H](N(C)C)[C@H]2O)[C@](C)(OC)C[C@@H](C)C(=O)[C@H](C)[C@@H](O)[C@]1(C)O`, the MIC was 4 µg/mL (microbial growth; DSM402).
`C#CCOc1ccc(CN[C@@]2(C)C[C@H](O[C@H]3[C@H](Oc4c5cc6cc4Oc4ccc(cc4Cl)[C@@H](O)[C@@H](NC(=O)[C@@H](CC(C)C)NC)C(=O)N[C@@H](CC(N)=O)C(=O)N[C@H]6C(=O)N[C@H]4C(=O)N[C@H](C(=O)N[C@H](C(=O)O)c6cc(O)cc(O)c6-c6cc4ccc6O)[C@H](O)c4ccc(c(Cl)c4)O5)O[C@H](CO)[C@@H](O)[C@@H]3O)O[C@@H](C)[C@H]2O)cc1OC` gave an MIC of 0.5 µg/mL (broth microdilution; 168, cation-adjusted Mueller-Hinton broth; 20 to 24 h, 37 °C, 0.002% polysorbate 80).
The MIC of `COc1c(NC(=O)c2ccc(NC(=O)c3ccc(NC(=O)[C@H](CC#N)NC(=O)c4ccc(NC(=O)/C(C)=C/c5ccc(O)cc5)cc4)cc3)c(OC)c2O)ccc(C(=O)O)c1O` is reported as 0.25 µg/mL (microbial growth, broth dilution; DSM10).
The MIC of `CC[C@H]1OC(=O)[C@H](C)[C@@H](OC(=O)Cc2ccc3c(c2)OCO3)[C@H](C)[C@@H](O[C@@H]2O[C@H](C)C[C@H](N(C)C)[C@H]2O)[C@](C)(OC)C[C@@H](C)C(=O)[C@H](C)[C@@H](O)[C@]1(C)O` is reported as 0.5 µg/mL (microbial growth; DSM402).
For `CN[C@H](CC(C)C)C(=O)N[C@H]1C(=O)N[C@@H](CC(N)=O)C(=O)N[C@H]2C(=O)N[C@H]3C(=O)N[C@H](C(=O)N[C@H](C(=O)O)c4cc(O)cc(O)c4-c4cc3ccc4O)[C@H](O)c3ccc(c(Cl)c3)Oc3cc2cc(c3O[C@@H]2O[C@H](CO)[C@@H](O)[C@H](O)[C@H]2O[C@H]2C[C@](C)(NCc3ccc(OCc4cn(CCCCC(=O)N[C@H](C(=O)N[C@@H](CCN)C(=O)N[C@H]5CCNC(=O)[C@H]([C@@H](C)O)NC(=O)[C@H](CCN)NC(=O)[C@H](CCN)NC(=O)[C@H](CC(C)C)NC(=O)[C@@H](CC(C)C)NC(=O)[C@H](CCN)NC5=O)[C@@H](C)O)nn4)c(OC)c3)[C@H](O)[C@H](C)O2)Oc2ccc(cc2Cl)[C@H]1O`, the MIC was 0.25 µg/mL (broth microdilution; 168, cation-adjusted Mueller-Hinton broth; 20 to 24 h, 37 °C, 0.002% polysorbate 80).
For `CCCCCCCCCc1nc2cc(Cl)ccc2c(=O)n1CCN`, the MIC was 4.4 µg/mL (168).
The MIC of `C#CCOc1ccc(CN[C@@]2(C)C[C@H](O[C@H]3[C@H](Oc4c5cc6cc4Oc4ccc(cc4Cl)[C@@H](O)[C@@H](NC(=O)[C@@H](CC(C)C)NC)C(=O)N[C@@H](CC(N)=O)C(=O)N[C@H]6C(=O)N[C@H]4C(=O)N[C@H](C(=O)N[C@H](C(=O)N[C@@H](CCCNC(=N)N)C(N)=O)c6cc(O)cc(O)c6-c6cc4ccc6O)[C@H](O)c4ccc(c(Cl)c4)O5)O[C@H](CO)[C@@H](O)[C@@H]3O)O[C@@H](C)[C@H]2O)cc1OC` is reported as 0.016 µg/mL (broth microdilution; 168, cation-adjusted Mueller-Hinton broth; 20 to 24 h, 37 °C, 0.002% polysorbate 80).
`CCOc1c(NC(=O)c2ccc(NC(=O)c3ccc(NC(=O)[C@H](Cc4c[nH]nn4)NC(=O)c4ccc(NC(=O)/C(C)=C/c5ccc(O)cc5)cc4)cc3)c(OCC)c2O)ccc(C(=O)O)c1O` has an MIC of 0.031 µg/mL (broth microdilution; DSM 10).
`CC(C)C[C@@H]1NC(=O)[C@@H](CC(C)C)NC(=O)[C@H](CCN)NC(=O)[C@@H](NC(=O)[C@H](CCN)NC(=O)[C@@H](N)[C@@H](C)O)CCNC(=O)[C@H]([C@@H](C)O)NC(=O)[C@H](CCN)NC(=O)[C@H](CCN)NC1=O` gave an MIC of over 138 µM (broth microdilution; 168, cation-adjusted Mueller-Hinton broth).
With `CC[C@H]1OC(=O)[C@H](C)[C@@H](OC(=O)Cc2cccc([N+](=O)[O-])c2)[C@H](C)[C@@H](O[C@@H]2O[C@H](C)C[C@H](N(C)C)[C@H]2O)[C@](C)(OC)C[C@@H](C)C(=O)[C@H](C)[C@@H](O)[C@]1(C)O` the MIC was 0.3 µg/mL (microbial growth; DSM402).
`COc1c(NC(=O)c2ccc(NC(=O)c3ccc(NC(=O)[C@H](Cc4c[nH]nn4)NC(=O)c4ccc(NC(=O)/C(C)=C/c5ccc(O)cc5)cc4)cc3)c(OC)c2O)ccc(C(=O)O)c1O` gave an MIC of 0.125 µg/mL (microbial growth, broth dilution; DSM10).
With `CC[C@H]1OC(=O)[C@H](C)[C@@H](OC(=O)CC2CCCCC2)[C@H](C)[C@@H](O[C@@H]2O[C@H](C)C[C@H](N(C)C)[C@H]2O)[C@](C)(OC)C[C@@H](C)C(=O)[C@H](C)[C@@H](O)[C@]1(C)O` the MIC was 1 µg/mL (microbial growth; DSM402).
With `CN[C@H](CC(C)C)C(=O)N[C@H]1C(=O)N[C@@H](CC(N)=O)C(=O)N[C@H]2C(=O)N[C@H]3C(=O)N[C@H](C(=O)N[C@H](C(=O)NCc4cn(CC(=O)N[C@H](C(=O)N[C@@H](CCN)C(=O)N[C@H]5CCNC(=O)[C@H]([C@@H](C)O)NC(=O)[C@H](CCN)NC(=O)[C@H](CCN)NC(=O)[C@H](CC(C)C)NC(=O)[C@@H](CC(C)C)NC(=O)[C@H](CCN)NC5=O)[C@@H](C)O)nn4)c4cc(O)cc(O)c4-c4cc3ccc4O)[C@H](O)c3ccc(c(Cl)c3)Oc3cc2cc(c3O[C@@H]2O[C@H](CO)[C@@H](O)[C@H](O)[C@H]2O[C@H]2C[C@](C)(N)[C@H](O)[C@H](C)O2)Oc2ccc(cc2Cl)[C@H]1O` the MIC was 0.5 µg/mL (broth microdilution; 168, cation-adjusted Mueller-Hinton broth; 20 to 24 h, 37 °C, 0.002% polysorbate 80).
